Published values collected from several papers.
A part holds a random share of what one study measured.

Series 1
Target: Histone acetyltransferase KAT6A, both winged helices, GST fusion (KAT6A, Homo sapiens, UniProt Q92794, residues 1-181)
Technique: protein binding microarray
Molecule type: double-stranded DNA, one strand shown
Medium: in vitro
Concentration: not given
Setting: 8-mer, flanks averaged, mean of 2 arrays, mostly near background
Relative to: not given
Direction: higher = stronger binding
Measurement: E-score
Target sequence (chain): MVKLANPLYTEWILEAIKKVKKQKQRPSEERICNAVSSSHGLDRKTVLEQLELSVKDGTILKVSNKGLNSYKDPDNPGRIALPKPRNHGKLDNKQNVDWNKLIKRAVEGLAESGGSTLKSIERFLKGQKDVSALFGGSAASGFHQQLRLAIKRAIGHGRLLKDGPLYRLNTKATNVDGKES
CTGTCACA: 0.075
CTAGTTTA: 0.0629
ATAAGCTA: -0.0974
TATATACA: -0.102
CATAAGGC: 0.072
CTTAACTA: 0.0124
GATTCTGC: -0.0119
ATGTCGTC: -0.122
GGGGTGCA: -0.0191
CCTTAAGC: 0.0138
CCCCTTCA: -0.237
ATGTTCGC: 0.136
AGACATTA: 0.00291
CTGGTAGA: -0.308
CCCTACGC: 0.111
CCCATCAG: -0.157
TATGGTCA: -0.22
GTGGGTTA: -0.07
ATGCTTGA: -0.121
CCATAGCA: -0.187
CAGGGTTA: -0.121
CTAATCGA: -0.0323
GCGCTGGA: 0.257
AACAGGGG: -0.268
ATGTAACA: 0.00788

Series 2
Target: RNA binding protein fox-1 homolog 2, RRM domain, GST-SBP tag (RBFOX2, Homo sapiens, UniProt O43251-10, residues 100-194)
Technique: RNA Bind-n-Seq
Molecule type: RNA
Medium: in vitro
Concentration: 365 nM
Setting: natural RNA segment, single round, ends assumed
Relative to: no-protein control
Direction: higher = stronger binding
Measurement: RBNS enrichment (R)
Shared flanks, not repeated: GGGAGUUCUACAGUCCGACGAUC … UGGAAUUCUCGGGUGCCAA
Target sequence (chain): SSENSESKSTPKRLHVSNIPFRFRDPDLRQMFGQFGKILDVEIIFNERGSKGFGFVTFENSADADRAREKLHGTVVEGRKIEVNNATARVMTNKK
AAUGGUGACAAUAACAACUUCAGAGAUCUGUGAUGAUCAUUUAAAUGGAGUACUCAUCUUCUCAUAGAAGAGCCGAUUAAUAUUAUCUAAGUACUUUAGUAGAAAACAAC: 0.344
CCCUCGCCCAGGCCGGGGCUGGAGGGAUUCGGCCGCGGCUCCGGUCCUGGGCGCUUCCCUUUUAAGCAAGGGCGCCUCACCUGCUCUUCAAGAAACAGCGAGAGGGAGAC: 0.346
AGCUAAGCUUGCUUUGCAGGGCAGACACCUGGGACAGCCUUCCUCCCUCAUGUUUGCUGGGACACUGCUGAGCACCCCUUGCUUACUUAGCUCAGUGAUGUUCCAGCUCC: 0.772
UCUUCCUGGCAAACCUGGACUGGAAGGGCCAUUUGCAGCACUGUCCUGGAGCUAAUACACUGUUUCACUGCCUCUGCCAUAUAAUGAUGCCAGCACUAGCCAGCUGGUGG: 0.347
UUUUCUUAUUAAAGUAUGUAGUUUAAAAGUAAGACUUUUUUCCUGACAGUAUUAUGUAAUUUUUAGCGUGGGUAGAUGGGAGUGUCGCUUGUAUGUUACCAUACAGCUGA: 0.82
UACCUAAGCCCAUAAUCGAGCUAGUAUCUUGGAUGGUAUACAACCAAGAACCAGCUAAACAAUUAGAUACAGUUUAAUAUUUGUACCUCCAAAUCUAUCACUUCCUUCCU: 0.408
UCUUCUGAGGGCCGGGCACGGUCACACGGCCACCCGCCCCGCGCACCCCACGCCCUGUUCACGCUCACCCAGUCACCUCCCCACAUCGCACACUGGGGCCCCGGGUUCAG: 1.01
ACUGUGGUCCCCUGGGCCCUGACCCCAGACAUGUAAAUACUCCUCAAAUUUGGAAAAGUUGUCCCAUCCCUUCCCCCUUUGCCCCAGUGUCCCUGCUCACUUCCAGUCAG: 0.437
GUUGAGAAGGCUUAAUCUCCUGUUUACAGCCCACAAUGAUUCUGUCCCAUGGUGUCCUGGCUAUAUGACCUAAAAACCAGCCUUUCCUCCACAAGGCUUUGAGACACAUC: 0.522
CAGUAGGUUGGGCUGCUCAUUUGCCUUCGGAUGACAUUAUGUAAAUAAACGAAUGUCACACCCACAGCUGGCUCUGUUACUCUCCUAAGCCGAGGGGUGGUGGGCCGGAG: 0.35
UUUUAGAGGAUAUAGUAUCGGCAUUGACAAAUCACGUAGAAACAAAGAAUGCUAUAGAUGACAACAGUAUUAAAUGUUACUCCUGAUUCUGCAGAACAGCUUUUGAAGAU: 0.71
CGUUGAACUUGGCUGUUGUUACAGGAAAAUGAUGGCAUCAACAGGUCUUUGAUGGUGGUGGAGCAUAUCAGAACACAUAAGGAACUGUAGCCCAGAUUUAUUUCAAUUCA: 0.424

Series 3
Organism: Saccharomyces cerevisiae
Effect on: binding
Technique: competitive growth deep sequencing
Molecule type: peptide
Strain: cyclin E1-Cln2 fusion strain
Concentration: concentration not given
Setting: peptide tiling library
Direction: direction not given
Measurement: growth enrichment score
RQVRRDLFAF: -0.0559
RVSGLLSWTLSRVLWL: 0.574
RRRIKLPESDSSED: 0.49
GFGFLLFICKLTF: 0.523
KVKRRLDLDIDGLQKE: 1.94
NEGVSNAVRRSLYIRD: 0.0299
NSMKELNFSHLPSNSV: 0.0478
KSKHEEEEWTDDDLVE: 0.0305
KRRLDLETDHQY: 0.855
SMTDFYHSKRRLIFSK: -0.364
PFSENVSAVQKLDFSD: 1.06
SPPRGRRLFPPGPAGF: 0.432
TTTTSPRTPPPLTVQD: -0.135
DSGFCLDSPGPLDSKE: -0.139
LKGRRLVFDN: -0.0241

Series 4
Target: Ras GTPase-activating protein-binding protein 1, full length (G3BP1, Homo sapiens, UniProt Q13283)
UniProt Q13283, sequence (whole entry, looked up): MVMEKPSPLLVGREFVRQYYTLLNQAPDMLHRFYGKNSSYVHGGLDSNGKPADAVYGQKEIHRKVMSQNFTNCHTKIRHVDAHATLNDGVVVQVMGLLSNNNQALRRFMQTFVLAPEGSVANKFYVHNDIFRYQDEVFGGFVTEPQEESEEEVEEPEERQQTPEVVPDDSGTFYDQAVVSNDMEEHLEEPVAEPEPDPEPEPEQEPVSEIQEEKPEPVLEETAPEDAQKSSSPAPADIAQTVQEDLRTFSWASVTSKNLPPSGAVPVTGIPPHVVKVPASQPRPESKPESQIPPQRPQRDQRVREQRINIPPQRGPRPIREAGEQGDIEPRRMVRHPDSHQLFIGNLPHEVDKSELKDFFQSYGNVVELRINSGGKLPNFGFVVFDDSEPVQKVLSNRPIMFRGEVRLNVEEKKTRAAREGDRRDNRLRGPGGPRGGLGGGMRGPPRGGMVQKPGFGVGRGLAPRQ
Technique: RNA Bind-n-Seq
Molecule type: RNA
Medium: in vitro
Concentration: 200 nM
Setting: whole 134-nt RNA, ends assumed
With: 150 mM KCl
Relative to: input library
Direction: higher = stronger binding
Measurement: log2 enrichment
Shared flanks, not repeated: GGGAGUUCUACAGUCCGACGAUC … UGGAAUUCUCGGGUGUCAAGG
CUGUGCUACACAUCGUAUGUACCGAAUCAAAUUUUUUUAAAUUUUUUUAAAUUUUUUUAAAAAAGUAUUAUGUUACGCCGUUCGGAUCUG: -1.44
GUCCUGUGCUACACAUCGUAUGUACCGAAUCGGGGCCCCCGGGCCCCCGGCCCCCGGGGAAAGUAUUAUGUUACGCCGUUCGGAUCUGCA: -0.532
GCAGGAAGUAAAAACAAAUGGUAAUGCUUCGGAUAGUGGCAGGGGUGGGGGUUGCUAAGGAAAGGGUGGGAUGGGAGUGGGUAAAGAGUU: 1.05
AAGUCCUGUGCUACACAUCGUAUGUACCGAAUCGGGGAAAGGGGAGGGGUUUGGGGAAAGUAUUAUGUUACGCCGUUCGGAUCUGCACUU: 0.28
UUCCUCAAGUCCUGUGCUACACAUCGUAUGUACCGAAUCGGUGGUGGGUGGAAAGUAUUAUGUUACGCCGUUCGGAUCUGCACUUCCAGC: -0.163
UCCUCAAGUCCUGUGCUACACAUCGUAUGUACCGAAUCGGAGGGGAGGGAGGAAAGUAUUAUGUUACGCCGUUCGGAUCUGCACUUCCAG: 0.22
CCAGGAAGUAAAAACAAAUGGAAAUGCUUCGGAUAGUGGCAGGGGUGGGGGUUGCUAAGGAAAGGGUGGGAUGGGAGUGGGUAAAGAGUU: 1.1
CACAGACACCACGCACCCACACAGACACAGAGGGAAGGGGUUGGGAUGGGGACAGGGUGCACAGCAGGGCGGGGUAGGACCCCAGCCCCU: 1.78
GUCCUGUGCUACACAUCGUAUGUACCGAAUCGGGAAAAAGGGUUUUUGGGUUUUUGGGAAAGUAUUAUGUUACGCCGUUCGGAUCUGCAC: -0.597
AGUCCUGUGCUACACAUCGUAUGUACCGAAUCGGGGAAAAAAAGGGGUGGGGAGGGGAAAGUAUUAUGUUACGCCGUUCGGAUCUGCACU: 0.437
GUUUGAUGAUCGUGGACGGAGUGAUUACGAUGGCAUUGGCAGCCGUGGUGACAGAAGUGGCUUUGGCAAAUUUGAACGUGGUGGAAACAG: 1.19
CCUCAAGUCCUGUGCUACACAUCGUAUGUACCGAAUCGGAGGGAGGGGAGGGGAAAGUAUUAUGUUACGCCGUUCGGAUCUGCACUUCCA: 0.808
CUGUGCUACACAUCGUAUGUACCGAAUCGGGAAAAAAAGGGGAAAAAAAGGGAAAAAAAGGGAAAGUAUUAUGUUACGCCGUUCGGAUCU: -0.797
UAUUAAUUUGAUAUAUUUAUUAUGAUUUGUAGAGGACGUCGGUGAUGAAGGAGAAGAAGAAAAAGAAUUCAUUUCCUAUAACAUCAACAU: -1.71

Series 5
Target: Sal-like protein 4, full length isoform B (SALL4, Homo sapiens, UniProt Q9UJQ4-2, residues 1-616)
Technique: universal PBM
Molecule type: double-stranded DNA, one strand shown
Medium: in vitro
Concentration: not given
Setting: 8-mer, flanks averaged, mean of replicates
Direction: higher = stronger binding
Measurement: E-score
Target sequence (chain): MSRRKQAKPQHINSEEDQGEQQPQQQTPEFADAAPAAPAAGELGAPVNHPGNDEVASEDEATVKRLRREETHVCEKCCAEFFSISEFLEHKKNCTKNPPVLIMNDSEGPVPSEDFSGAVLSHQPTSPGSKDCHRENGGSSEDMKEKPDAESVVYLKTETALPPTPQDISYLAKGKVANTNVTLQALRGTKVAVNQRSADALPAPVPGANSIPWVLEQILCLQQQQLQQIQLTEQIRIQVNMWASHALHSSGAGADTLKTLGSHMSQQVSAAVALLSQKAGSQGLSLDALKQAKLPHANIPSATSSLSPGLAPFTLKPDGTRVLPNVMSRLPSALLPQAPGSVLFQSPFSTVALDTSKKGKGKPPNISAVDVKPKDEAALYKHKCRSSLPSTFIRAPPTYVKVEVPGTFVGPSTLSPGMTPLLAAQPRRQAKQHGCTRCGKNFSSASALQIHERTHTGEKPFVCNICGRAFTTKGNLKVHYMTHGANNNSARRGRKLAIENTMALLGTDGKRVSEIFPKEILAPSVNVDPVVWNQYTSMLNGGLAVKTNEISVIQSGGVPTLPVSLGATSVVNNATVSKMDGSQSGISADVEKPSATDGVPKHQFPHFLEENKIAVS
CTCAGGAG: -0.246
CCTCGATA: 0.119
ACTCCTGA: -0.0347
AGGACGCG: -0.153
CCCGGAGG: -0.422
ATCCCGCA: -0.0524
TAGGCGGA: 0.0851
AGTCCTTA: 0.133
GGTCGCTA: -0.273
CGTCTGTA: 0.111
CTATCAAA: 0.105
ATTGATGG: 0.269
GTTCACCA: -0.154
CGGGCCTA: -0.358
AGGACTGA: -0.0754
ACATTCCG: -0.0387
GATAACTA: 0.276
ACGGCCGA: -0.166
AGCTTGTA: 0.0773
CGCTTAAA: 0.0139
CCCCGCAA: -0.0968
CGTTCAAC: 0.0656
GGTTCCTA: -0.0978
CCCGGAAC: -0.337
GGGTCTAA: -0.0969
